Results of several laboratories.

Structure (SMILES)	assay	system	conditions	endpoint	value
COc1ccc(-c2c(-c3ccc(C#N)c(F)c3)nc(N3CCC(N)CC3)n(C)c2=O)cc1F	item: rash maculo-papular	human patients	oral, dose not given, dose escalation	patients with TRAE any grade	4%
C[C@]1(O)C[C@@](N)(c2ccc(-c3nc4n(c3-c3ccccc3)COc3ccncc3-4)cc2)C1	–	human, advanced or metastatic solid tumours	20 mg once daily, phase I dose escalation	patients with Stomatitis TEAE	0%
CN(C)C(=O)c1cc2cnc(Nc3ccc(N4CCNCC4)cn3)nc2n1C1CCCC1	item: other hematologic AESIs	human, HR+/HER2− advanced breast cancer	oral, dose not given, grade 3, CTCAE v4.03	patients with adverse event	0%
Cc1cn([C@H]2O[C@@H](CO[P@@](=O)(N[C@@H](C)C(=O)OC(C)C)Oc3ccccc3)[C@H](O)[C@H]2F)c(=O)[nH]c1=O	item: Nausea	human	25 mg	patients with TEAE	0%
Cn1cncc1-c1c(F)cncc1NC(=O)c1c(N)nn2cc(F)cnc12	–	human patients	oral, 220 mg once daily, 2 weeks on 1 week off	patients grade ≥3 Platelet count decrease	17%
O=C1Nc2cc3[nH]nc(-c4ccncc4)c3cc2CN1Cc1ccccc1	CTCAE v4.03	human, relapsed or refractory advanced solid tumours	intravenous, 1.8 mg/kg, pooled schedules	patients with vomiting	100%
COc1ncnn2ccc(-c3cnc4nc(C)n(Cc5nnc([C@@H](C)F)o5)c4c3)c12	–	human	oral, dose not given, grade 3	patients with hyponatremia	0%
C=CC(=O)Nc1cc(Nc2nccc(Nc3cc(Cl)c(F)cc3C(C)(C)O)n2)c(OC)cc1N1CC[C@@H](N(C)C)C1	–	human patients	oral, 200 mg, treatment-emergent adverse events	patients with decreased appetite	12.5%
C[C@@H]1OC(=O)NN=C1c1ccc(-c2ccc(F)cc2)c(C(F)(F)F)c1	phase I trial, item: Presyncope worst grade 2	human patients	5 mg loading then 0.25 mg daily	patients with adverse event	0%
Cn1nc(NS(C)(=O)=O)c2c(Cl)ccc(-n3c([C@H](Cc4cc(F)cc(F)c4)NC(=O)Cn4nc(C(F)F)c5c4C(F)(F)[C@@H]4C[C@H]54)nc4nc(OCCC(F)(F)F)ccc4c3=O)c21	item: total cholesterol grade 2 increase	human	200 mg once daily, powder in bottle	patients with laboratory abnormality	17%

Repeated from above:
Structure (SMILES)	assay	system	conditions	endpoint	value
COc1ccc(-c2c(-c3ccc(C#N)c(F)c3)nc(N3CCC(N)CC3)n(C)c2=O)cc1F	item: rash maculo-papular	human patients	oral, dose not given, dose escalation	patients with TRAE any grade	4%
